Results gathered from unrelated publications.
A part holds a random share of what one study measured. Values joined by “and” are separate records of one study, mostly repeats; a detail may differ.
Sequence of UniProt Q9HBH9 (whole entry, looked up): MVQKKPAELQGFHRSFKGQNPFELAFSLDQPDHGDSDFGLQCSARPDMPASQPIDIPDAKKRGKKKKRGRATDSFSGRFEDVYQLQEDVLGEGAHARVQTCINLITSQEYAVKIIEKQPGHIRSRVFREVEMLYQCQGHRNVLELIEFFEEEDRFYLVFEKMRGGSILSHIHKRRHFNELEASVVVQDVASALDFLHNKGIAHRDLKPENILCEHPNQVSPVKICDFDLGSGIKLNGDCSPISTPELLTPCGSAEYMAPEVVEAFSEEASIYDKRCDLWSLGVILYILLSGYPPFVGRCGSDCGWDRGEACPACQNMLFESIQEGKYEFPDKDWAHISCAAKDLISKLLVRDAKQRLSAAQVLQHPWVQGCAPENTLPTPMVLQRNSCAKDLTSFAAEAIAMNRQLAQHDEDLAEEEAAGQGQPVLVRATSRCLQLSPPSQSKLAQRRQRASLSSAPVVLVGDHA
Sequence of UniProt P19784 (whole entry, looked up): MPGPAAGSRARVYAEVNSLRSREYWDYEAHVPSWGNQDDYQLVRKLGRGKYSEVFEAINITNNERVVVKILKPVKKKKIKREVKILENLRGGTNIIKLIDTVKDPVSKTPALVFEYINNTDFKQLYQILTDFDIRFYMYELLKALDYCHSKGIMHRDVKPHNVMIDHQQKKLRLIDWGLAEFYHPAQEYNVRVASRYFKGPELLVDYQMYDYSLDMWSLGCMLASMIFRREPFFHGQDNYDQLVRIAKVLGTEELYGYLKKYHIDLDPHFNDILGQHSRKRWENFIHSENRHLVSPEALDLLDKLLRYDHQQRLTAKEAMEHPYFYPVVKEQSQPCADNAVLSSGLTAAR
Sequence of UniProt Q9BWU1 (whole entry, looked up): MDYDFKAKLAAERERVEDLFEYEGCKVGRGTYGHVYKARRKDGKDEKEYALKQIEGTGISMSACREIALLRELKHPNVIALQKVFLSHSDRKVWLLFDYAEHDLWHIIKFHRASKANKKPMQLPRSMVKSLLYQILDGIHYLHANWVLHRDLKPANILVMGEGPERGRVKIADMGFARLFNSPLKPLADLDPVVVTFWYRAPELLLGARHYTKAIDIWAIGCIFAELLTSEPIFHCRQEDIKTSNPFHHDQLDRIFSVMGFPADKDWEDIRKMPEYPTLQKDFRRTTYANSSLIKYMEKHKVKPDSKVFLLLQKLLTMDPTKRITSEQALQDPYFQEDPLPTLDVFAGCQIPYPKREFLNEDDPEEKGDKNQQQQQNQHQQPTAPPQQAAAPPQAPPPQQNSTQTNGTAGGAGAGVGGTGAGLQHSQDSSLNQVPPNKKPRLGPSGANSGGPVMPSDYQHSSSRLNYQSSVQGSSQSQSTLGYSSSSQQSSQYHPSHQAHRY
Sequence of UniProt Q15208 (whole entry, looked up): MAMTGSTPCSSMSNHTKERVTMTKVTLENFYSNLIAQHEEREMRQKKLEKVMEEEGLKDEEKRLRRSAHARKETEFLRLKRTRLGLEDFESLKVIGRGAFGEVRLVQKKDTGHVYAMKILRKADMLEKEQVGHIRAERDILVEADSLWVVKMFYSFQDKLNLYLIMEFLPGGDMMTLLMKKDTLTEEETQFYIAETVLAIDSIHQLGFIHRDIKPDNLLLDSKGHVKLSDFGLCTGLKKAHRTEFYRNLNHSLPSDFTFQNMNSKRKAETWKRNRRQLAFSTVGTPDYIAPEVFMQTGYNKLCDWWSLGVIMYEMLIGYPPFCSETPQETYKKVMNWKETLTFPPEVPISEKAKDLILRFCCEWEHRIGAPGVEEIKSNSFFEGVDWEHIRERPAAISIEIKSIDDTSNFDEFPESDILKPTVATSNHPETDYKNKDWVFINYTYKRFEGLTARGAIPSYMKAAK

Series 1 — observed: enzyme activity; action: inhibitor; concentration: 77 µM; relative to: untreated; endpoint: remaining activity
Target: DNA polymerase theta, ATPase domain (POLQ, Homo sapiens, UniProt O75417)
Sequence of UniProt O75417 (whole entry, unmodified, looked up): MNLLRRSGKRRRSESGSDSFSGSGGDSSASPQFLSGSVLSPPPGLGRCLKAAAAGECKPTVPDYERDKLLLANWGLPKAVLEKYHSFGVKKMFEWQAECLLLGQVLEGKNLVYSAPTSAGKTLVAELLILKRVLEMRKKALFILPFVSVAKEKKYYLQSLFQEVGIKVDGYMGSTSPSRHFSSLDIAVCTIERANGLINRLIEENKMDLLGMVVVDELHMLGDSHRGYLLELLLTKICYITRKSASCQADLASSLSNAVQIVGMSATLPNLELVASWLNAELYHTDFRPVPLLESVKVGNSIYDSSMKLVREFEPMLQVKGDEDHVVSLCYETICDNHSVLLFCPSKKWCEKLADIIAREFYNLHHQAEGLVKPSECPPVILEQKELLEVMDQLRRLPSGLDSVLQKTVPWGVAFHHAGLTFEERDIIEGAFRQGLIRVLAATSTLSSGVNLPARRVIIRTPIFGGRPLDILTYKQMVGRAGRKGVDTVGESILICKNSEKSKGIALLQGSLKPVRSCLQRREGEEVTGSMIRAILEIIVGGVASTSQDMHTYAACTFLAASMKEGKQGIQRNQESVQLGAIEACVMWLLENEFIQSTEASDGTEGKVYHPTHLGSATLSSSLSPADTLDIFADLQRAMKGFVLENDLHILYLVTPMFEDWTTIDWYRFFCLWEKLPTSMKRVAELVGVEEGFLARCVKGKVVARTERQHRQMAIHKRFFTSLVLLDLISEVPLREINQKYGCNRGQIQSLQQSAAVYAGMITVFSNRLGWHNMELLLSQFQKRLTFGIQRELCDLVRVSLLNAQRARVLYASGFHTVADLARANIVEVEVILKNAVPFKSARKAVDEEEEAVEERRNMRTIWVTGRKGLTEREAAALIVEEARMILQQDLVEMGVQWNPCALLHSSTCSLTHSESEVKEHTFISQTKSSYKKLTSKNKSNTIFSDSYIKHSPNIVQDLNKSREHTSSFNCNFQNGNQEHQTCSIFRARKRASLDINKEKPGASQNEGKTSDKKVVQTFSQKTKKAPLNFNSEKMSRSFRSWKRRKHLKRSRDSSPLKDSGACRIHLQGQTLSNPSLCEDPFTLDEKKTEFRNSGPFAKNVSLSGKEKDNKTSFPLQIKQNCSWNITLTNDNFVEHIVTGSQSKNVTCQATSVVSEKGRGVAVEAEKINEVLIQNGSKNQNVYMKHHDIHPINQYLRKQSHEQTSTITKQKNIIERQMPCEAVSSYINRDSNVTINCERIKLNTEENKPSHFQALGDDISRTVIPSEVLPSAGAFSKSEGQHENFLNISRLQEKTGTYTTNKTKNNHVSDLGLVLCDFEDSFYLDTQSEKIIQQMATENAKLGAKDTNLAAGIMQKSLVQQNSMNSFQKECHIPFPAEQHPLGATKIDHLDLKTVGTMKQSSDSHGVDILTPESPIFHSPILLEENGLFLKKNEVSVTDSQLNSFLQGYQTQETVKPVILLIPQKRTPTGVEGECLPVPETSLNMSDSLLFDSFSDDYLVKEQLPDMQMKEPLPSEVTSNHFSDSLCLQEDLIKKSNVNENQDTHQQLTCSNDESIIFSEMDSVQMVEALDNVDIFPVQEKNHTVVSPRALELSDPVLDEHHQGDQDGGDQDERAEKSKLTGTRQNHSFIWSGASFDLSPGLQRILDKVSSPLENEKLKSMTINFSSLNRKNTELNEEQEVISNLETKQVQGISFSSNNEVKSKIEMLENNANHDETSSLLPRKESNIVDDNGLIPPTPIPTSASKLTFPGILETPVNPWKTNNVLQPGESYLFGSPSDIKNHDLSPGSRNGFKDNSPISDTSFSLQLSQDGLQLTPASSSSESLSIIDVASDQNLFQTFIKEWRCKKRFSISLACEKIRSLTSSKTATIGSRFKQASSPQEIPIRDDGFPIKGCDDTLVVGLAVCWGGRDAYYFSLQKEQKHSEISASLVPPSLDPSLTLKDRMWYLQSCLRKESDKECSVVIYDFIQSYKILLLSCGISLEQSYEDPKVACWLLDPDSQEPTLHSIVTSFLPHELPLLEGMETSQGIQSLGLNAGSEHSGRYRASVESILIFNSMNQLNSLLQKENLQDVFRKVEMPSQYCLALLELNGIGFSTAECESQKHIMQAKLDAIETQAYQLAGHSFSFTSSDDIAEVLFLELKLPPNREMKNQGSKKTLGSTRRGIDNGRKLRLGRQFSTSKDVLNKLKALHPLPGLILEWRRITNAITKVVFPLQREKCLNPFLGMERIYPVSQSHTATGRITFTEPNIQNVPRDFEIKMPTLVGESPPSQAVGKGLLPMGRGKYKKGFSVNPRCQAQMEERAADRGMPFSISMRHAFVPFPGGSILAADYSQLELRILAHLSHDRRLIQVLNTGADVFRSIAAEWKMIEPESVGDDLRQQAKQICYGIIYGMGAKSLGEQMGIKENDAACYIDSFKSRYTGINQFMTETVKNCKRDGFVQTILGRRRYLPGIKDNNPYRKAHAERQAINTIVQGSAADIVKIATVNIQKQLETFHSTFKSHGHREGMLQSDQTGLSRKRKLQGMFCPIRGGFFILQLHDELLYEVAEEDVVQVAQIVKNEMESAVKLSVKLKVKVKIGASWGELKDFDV
O=C(NC[C@H]1CN(c2ccc(N3CCOCC3=O)cc2)C(=O)O1)c1ccc(Cl)s1: 103%
CC(=O)SCC(Cc1ccccc1)C(=O)NCC(=O)OCc1ccccc1 (stereo not drawn): 98.8% and 100%
CC(C)C(=O)Oc1ccc(CO)cc1[C@H](CCN(C(C)C)C(C)C)c1ccccc1: 103%
CCN(CC)CCNc1ccc(CO)c2sc3ccccc3c(=O)c12: 94%
Nc1nc2c(nc(Br)n2[C@@H]2O[C@@H]3COP(=O)(O)O[C@H]3[C@H]2O)c(=O)[nH]1: 101%
Fc1ccc2[nH]c(CN3CCN(c4ccccn4)CC3)cc2c1: 95.4%
NC(=O)c1cc[n+](CC2=C(C(=O)[O-])N3C(=O)[C@@H](NC(=O)Cc4cccs4)[C@H]3SC2)cc1: 100%
Cc1cccc(-c2[nH]c(C(C)(C)C)nc2-c2ccc3c(c2)OCO3)n1: 102%
CCCCCCOC(=O)NC(=N)c1ccc(NCc2nc3cc(C(=O)N(CCC(=O)OCC)c4ccccn4)ccc3n2C)cc1: 97.1%
CC(NCCC(c1ccccc1)c1ccccc1)c1ccccc1 (stereo not drawn): 95.9%
NC[C@H](O)c1ccc(O)c(O)c1: 92.7%
CCN[C@H]1CN(CCCOC)S(=O)(=O)c2sc(S(N)(=O)=O)cc21: 101%
Nc1[nH]cnc2ncnc1-2: 93%
Cc1cc(Nc2ncnc3ccc(-c4ccc(CNCCS(C)(=O)=O)o4)cc23)ccc1Oc1ccn2ncnc2c1: 97.7%
Nc1cccc2c1CN(C1CCC(=O)NC1=O)C2=O (stereo not drawn): 99.3%
O=C(CCSCc1ccco1)NNC(=O)N1Cc2ccccc2Oc2ccc(Cl)cc21: 98.7%
Clc1ccc(Nc2nnc(Cc3ccncc3)c3ccccc23)cc1: 101%
COc1cc(C)nc(-n2nc(C)cc2OC)n1: 93.4%

Series 2 — observed: enzyme activity; action: inhibitor; concentration: 10 µM; endpoint: inhibition
Target: Calcium/calmodulin-dependent protein kinase type II subunit alpha (CAMK2A, Homo sapiens, UniProt Q9UQM7)
Sequence of UniProt Q9UQM7 (whole entry, looked up): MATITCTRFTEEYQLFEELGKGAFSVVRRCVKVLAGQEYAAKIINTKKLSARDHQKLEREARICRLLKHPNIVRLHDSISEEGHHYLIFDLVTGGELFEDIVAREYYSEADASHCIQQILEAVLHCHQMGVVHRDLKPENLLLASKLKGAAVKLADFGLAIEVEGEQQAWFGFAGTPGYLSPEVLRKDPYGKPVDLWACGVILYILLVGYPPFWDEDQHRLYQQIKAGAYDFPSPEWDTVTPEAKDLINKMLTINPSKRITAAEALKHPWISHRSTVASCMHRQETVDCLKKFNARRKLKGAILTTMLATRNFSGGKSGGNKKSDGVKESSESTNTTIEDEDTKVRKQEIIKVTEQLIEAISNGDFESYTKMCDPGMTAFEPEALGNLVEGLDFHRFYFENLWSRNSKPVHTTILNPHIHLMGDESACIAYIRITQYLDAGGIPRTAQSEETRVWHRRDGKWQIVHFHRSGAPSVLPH
C=C[C@@H]1C[C@]1(NC(=O)[C@@H]1C[C@@H](Oc2ncc(OC)c3ccc(Cl)cc23)CN1C(=O)[C@@H](NC(=O)OC(C)(C)C)C(C)(C)C)C(=O)NS(=O)(=O)C1CC1: -10%
C=C[C@H]1[C@H](O[C@@H]2O[C@H](CO)[C@@H](O)[C@H](O)[C@H]2O)OC=C(C(=O)OC)[C@H]1CCOC(=O)c1cccc(O[C@@H]2O[C@H](CO)[C@@H](O)[C@H](O)[C@H]2O)c1O: -4%
CCC(C)C(=O)C(=O)O (stereo not drawn): 3%
COCCCOc1ccnc(C[S+]([O-])c2nc3ccccc3[nH]2)c1C (stereo not drawn): -4%
COc1cccc2c1C(=O)c1c(O)c3c(c(O)c1C2=O)C[C@@](O)(C(=O)CO)C[C@@H]3O[C@H]1C[C@H](N)[C@H](O[C@@H]2CCCCO2)[C@H](C)O1: 0%
Nc1ccn([C@H]2CC[C@@H](CO)O2)c(=O)n1: -3%
CN(C)CCOC(=O)C(c1ccccc1)C1(O)CCCC1 (stereo not drawn): 5%
CCCCCCCCCCCCCCCC(=O)NCCO: -10%
CCCSc1ccc2[nH]c(NC(=O)OC)nc2c1: -12%
CCOC(=O)[C@H](CCc1ccccc1)N[C@@H](C)C(=O)N1[C@H](C(=O)O)C[C@@H]2CCC[C@@H]21: 2%
COc1cc2c(cc1OC)[C@@H](Cc1ccc(O)cc1)N(C)CC2: -20%
CC(=O)c1ccc(O)c(O)c1: -15%
C[C@](N)(Cc1ccc(O)c(O)c1)C(=O)O: 0%
O=c1c(O)c(-c2ccc(O)c(O)c2)oc2c(O[C@@H]3O[C@H](CO)[C@@H](O)[C@H](O)[C@H]3O)c(O)cc(O)c12: 7%
NCCCCC(N)C(=O)O (racemic): 24%
CC(C)(CO)[C@@H](O)C(=O)NCCCO: 13%

Series 3 — concentration: 1 µM; endpoint: remaining binding
Structure (SMILES): CC(=O)c1c(NS(C)(=O)=O)c2cc(-c3ccc(Cl)cc3)c(-c3ccc(Cl)cc3Cl)nc2n(C)c1=O
TAOK3 (Homo sapiens, UniProt Q9H2K8); cell-free assay, competition with immobilised ligand: 72%
CSNK2A2 (Homo sapiens, UniProt P19784); cell-free assay, competition with immobilised ligand: 100%
CDK19 (Homo sapiens, UniProt Q9BWU1); competition binding: 100%
BMP2K (Homo sapiens, UniProt Q9NSY1); cell-free assay, competition with immobilised ligand: 100%
MKNK2 (Homo sapiens, UniProt Q9HBH9); cell-free assay, competition with immobilised ligand: 75%
MELK (Homo sapiens, UniProt Q14680); cell-free assay, competition with immobilised ligand: 100%
MET (Homo sapiens, UniProt P08581, M1250T); cell-free assay, competition with immobilised ligand: 90%
NEK5 (Homo sapiens, UniProt Q6P3R8); cell-free assay, competition with immobilised ligand: 100%
SRPK1 (Homo sapiens, UniProt Q96SB4); cell-free assay, competition with immobilised ligand: 100%
MAP3K6 (Homo sapiens, UniProt O95382); cell-free assay, competition with immobilised ligand: 83%
STK16 (Homo sapiens, UniProt O75716); cell-free assay, competition with immobilised ligand: 100%
Ribosomal protein S6 kinase alpha-2, N-terminal kinase domain (RPS6KA2, Homo sapiens, UniProt Q15349); cell-free assay, competition with immobilised ligand: 100%
PIK3CA (Homo sapiens, UniProt P42336, E542K); cell-free assay, competition with immobilised ligand: 76%
MAPK11 (Homo sapiens, UniProt Q15759); cell-free assay, competition with immobilised ligand: 100%
MAP2K4 (Homo sapiens, UniProt P45985); cell-free assay, competition with immobilised ligand: 89%
DYRK1B (Homo sapiens, UniProt Q9Y463); cell-free assay, competition with immobilised ligand: 100%
DMPK (Homo sapiens, UniProt Q09013); cell-free assay, competition with immobilised ligand: 89%

Series 4 — SMILES: O=C(Nc1ccc(Cl)cc1)c1ccccc1NCc1ccncc1; observed: enzyme activity; action: inhibitor; concentration: 0.5 µM; relative to: control; endpoint: remaining activity
LRRK2 (Homo sapiens, UniProt Q5S007): 98.7%
PRKCD (Homo sapiens, UniProt Q05655): 84.7%
CHEK1 (Homo sapiens, UniProt O14757): 96.4%
PRKG1 (Homo sapiens, UniProt Q13976): 86.8%
BTK (Homo sapiens, UniProt Q06187): 98.9%
PLK2 (Homo sapiens, UniProt Q9NYY3): 99.3%
CSNK2A1 (Homo sapiens, UniProt P68400): 91.1%
MAP4K2 (Homo sapiens, UniProt Q12851): 97.3%
MAPK13 (Homo sapiens, UniProt O15264): 95.6%
CSNK1A1 (Homo sapiens, UniProt P48729): 88.1%
MKNK2 (Homo sapiens, UniProt Q9HBH9): 82.3%
KIT (Homo sapiens, UniProt P10721): 33.6%
MAP3K10 (Homo sapiens, UniProt Q02779): 104%
AKT3 (Homo sapiens, UniProt Q9Y243): 97.9%
MAPK12 (Homo sapiens, UniProt P53778): 97.3%
EPHA5 (Homo sapiens, UniProt P54756): 82.1%
IRAK4 (Homo sapiens, UniProt Q9NWZ3): 104%
MAP2K6 (Homo sapiens, UniProt P52564): 117%
Cyclin-dependent kinase 9, with cyclin T1 (CDK9, Homo sapiens, UniProt P50750): 81.9%
PRKCI (Homo sapiens, UniProt P41743): 98.7%
NEK4 (Homo sapiens, UniProt P51957): 85.8%
WNK2 (Homo sapiens, UniProt Q9Y3S1): 101%
STK38 (Homo sapiens, UniProt Q15208): 97.5%
LYN (Homo sapiens, UniProt P07948): 75.1%
